Published values from different studies.
Parts stem from different laboratories: compare values within a part only. Positions count from the first letter of the parent shown.

Sample 1
Target: Sal-like protein 4, full length isoform B (SALL4, Homo sapiens, UniProt Q9UJQ4-2, residues 1-616)
Method: universal PBM
Molecule type: double-stranded DNA, one strand shown
Sample: in vitro
Concentration: not given
Setting: 8-mer, flanks averaged, mean of replicates
Direction: higher = stronger binding
Residues (chain): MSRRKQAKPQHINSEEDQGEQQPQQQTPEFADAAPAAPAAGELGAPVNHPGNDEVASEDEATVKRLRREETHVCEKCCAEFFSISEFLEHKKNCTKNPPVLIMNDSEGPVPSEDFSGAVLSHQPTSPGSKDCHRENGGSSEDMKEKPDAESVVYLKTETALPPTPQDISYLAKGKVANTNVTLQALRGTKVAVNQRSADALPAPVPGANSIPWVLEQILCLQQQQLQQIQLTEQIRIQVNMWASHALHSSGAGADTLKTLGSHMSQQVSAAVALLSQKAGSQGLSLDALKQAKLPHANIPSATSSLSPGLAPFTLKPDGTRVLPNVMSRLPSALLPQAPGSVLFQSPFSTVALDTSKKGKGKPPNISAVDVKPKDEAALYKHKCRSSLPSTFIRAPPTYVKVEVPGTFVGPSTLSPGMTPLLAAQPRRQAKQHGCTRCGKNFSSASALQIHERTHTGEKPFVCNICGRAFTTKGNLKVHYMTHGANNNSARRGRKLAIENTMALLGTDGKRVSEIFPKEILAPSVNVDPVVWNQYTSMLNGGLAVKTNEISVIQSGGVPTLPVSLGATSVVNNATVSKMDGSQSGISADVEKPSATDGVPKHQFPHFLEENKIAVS
| Sequence | E-score |
| --- | --- |
| GCCAGGCC | -0.322 |
| CCGCGATC | -0.265 |
| ACTGCCCG | -0.162 |
| ATGCTAAC | 0.073 |
| ATCCTCAA | 0.108 |
| TATAACAA | 0.368 |
| CGGGGCCC | -0.416 |
| GCCCTGCA | -0.203 |
| AGAGTAGA | 0.181 |
| AGATTCTC | -0.0183 |
| ACCGTACT | 0.0229 |
| AGCAATGA | -0.0216 |

Sample 2
Target: CCNB1, cyclin fold, Cln2 fusion (human)
Method: yeast growth competition, sequencing
Sample: yeast
Setting: strong parent motif
Relative to: not given
Direction: higher = stronger binding
Parent: E2F1 docking peptide (human); PPVKRRLDLETDH; partner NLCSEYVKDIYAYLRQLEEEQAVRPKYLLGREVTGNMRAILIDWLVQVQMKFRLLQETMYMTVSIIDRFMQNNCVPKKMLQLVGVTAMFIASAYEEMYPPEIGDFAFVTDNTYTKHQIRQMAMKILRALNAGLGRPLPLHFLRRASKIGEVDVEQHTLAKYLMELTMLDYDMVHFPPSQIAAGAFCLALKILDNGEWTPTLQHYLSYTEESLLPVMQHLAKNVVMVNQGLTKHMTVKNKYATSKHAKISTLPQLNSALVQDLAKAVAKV
| Variant | normalised enrichment score |
| --- | --- |
| T11L | 1.86 |
| D12I | 0.527 |
| V3D | 0.0677 |
| D8A | 0.832 |
| R6E | 0.883 |
| P2N | 1.05 |
| D12Y | 2.09 |
| R6M | 0.717 |
| P2T | 0.593 |
| R6S | 0.891 |
| K4S | 1.53 |
| R5H | 0.176 |

Sample 3
Target: Fragile X messenger ribonucleoprotein 1, C-terminal low-complexity region (Fmr1, Mus musculus, UniProt P35922)
Method: RNA Bind-n-Seq
Molecule type: RNA
Sample: in vitro
Concentration: 200 nM
Setting: whole 134-nt RNA, ends assumed
Added: 150 mM LiCl
Relative to: input library
Direction: higher = stronger binding
All molecules: 7-deaza-guanosine replaces G
Constant ends, left off below: GGGAGUUCUACAGUCCGACGAUC … UGGAAUUCUCGGGUGUCAAGG
| Sequence | log2 enrichment |
| --- | --- |
| CUGUGCUACACAUCGUAUGUACCGAAUCGGGGAAAAAAGGGGAAAAAAGGGGAAAAAAGGGGAAAGUAUUAUGUUACGCCGUUCGGAUCU | 1.15 |
| UAACUUUAGAGGAGGAUCUGAUGGAUAUGGCAGUGGACGUGGAUUUGGGGAUGGCUAUAAUGGGUAUGGAGGCGGACCUGGAGGUGGCAA | 0.247 |
| ACCAUGCAGGUGGGCAUCUUUGGGAAGUGGGGCAAGGGGGGGAUAGGGAGGGGGGUAACACUUUGGGAACAGGUGGUAAAAGGUCGUUUC | 1.19 |
| ACCAUGCAGGUGGGCAUCUUUGGGAAGUGGGGCAAGGGGGGGAUAGGGAGGGGGGUAACACUUUGGGAACAGGUGGUCACAGGUCGUUUC | 1.33 |
| GUCCUGUGCUACACAUCGUAUGUACCGAAUCGGUUUUUGGGGUUUUUGGUUUUUGGGGAAAGUAUUAUGUUACGCCGUUCGGAUCUGCAC | -1.28 |
| AAGUCCUGUGCUACACAUCGUAUGUACCGAAUCGGGAAAGGGUUUUUUUGGGAGGGAAAGUAUUAUGUUACGCCGUUCGGAUCUGCACUU | -1.4 |

Sample 4
Target: ABI1, truncated, D143A, DHFR fusion (Arabidopsis thaliana)
Method: DHFR PCA, deep sequencing
Sample: yeast
Setting: methotrexate growth selection, single substitutions
Added: (+)-ABA 0.11 µM
Relative to: wild-type fitted maximum
Direction: higher = stronger binding
Parent: PYL1, truncated, DHFR fusion (Arabidopsis thaliana); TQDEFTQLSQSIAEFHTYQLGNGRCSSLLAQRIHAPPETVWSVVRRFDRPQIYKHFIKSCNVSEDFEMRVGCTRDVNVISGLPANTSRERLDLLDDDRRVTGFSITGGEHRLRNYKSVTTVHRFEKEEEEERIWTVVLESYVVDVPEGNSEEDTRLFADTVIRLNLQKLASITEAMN; partner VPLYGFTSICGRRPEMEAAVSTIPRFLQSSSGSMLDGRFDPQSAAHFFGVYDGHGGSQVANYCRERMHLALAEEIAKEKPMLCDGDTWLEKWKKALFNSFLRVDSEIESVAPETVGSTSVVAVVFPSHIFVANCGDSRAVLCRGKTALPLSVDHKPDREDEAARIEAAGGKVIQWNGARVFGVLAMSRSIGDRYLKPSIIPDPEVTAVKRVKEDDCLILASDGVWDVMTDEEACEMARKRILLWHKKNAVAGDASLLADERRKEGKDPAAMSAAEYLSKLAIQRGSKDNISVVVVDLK
| Variant | relative binding score [%] |
| --- | --- |
| S171P | -0.658 |
| W134D | 14.8 |
| A175W | 4.45 |
| H16R | 1.12 |
| G81L | 5.46 |
| E89R | -2.36 |
| R132A | 49.3 |
| D65R | 9.32 |
| L166N | -2.57 |
| G71I | 1.82 |
| F5H | 6.36 |
| V43L | 17.5 |
| G81C | 21.8 |
| G102Y | -8.79 |
| E129I | 8.24 |

Sample 5
Target: Hepatocyte nuclear factor 3-alpha (Foxa1, Mus musculus, UniProt P35582, residues 1-468, full length assumed)
Method: EMSA with sequencing
Molecule type: double-stranded DNA, one strand shown
Sample: in vitro
Concentration: 10 and 20 nM
Setting: whole designed probe, mean of two concentrations, ends assumed
Relative to: negative control set to 0
Direction: higher = stronger binding
Constant ends, left off below: GTGAGCGGTGCCCATTGATGGGGAAC … TTTCACTGGGATCGTGGGGAC
Construct (chain): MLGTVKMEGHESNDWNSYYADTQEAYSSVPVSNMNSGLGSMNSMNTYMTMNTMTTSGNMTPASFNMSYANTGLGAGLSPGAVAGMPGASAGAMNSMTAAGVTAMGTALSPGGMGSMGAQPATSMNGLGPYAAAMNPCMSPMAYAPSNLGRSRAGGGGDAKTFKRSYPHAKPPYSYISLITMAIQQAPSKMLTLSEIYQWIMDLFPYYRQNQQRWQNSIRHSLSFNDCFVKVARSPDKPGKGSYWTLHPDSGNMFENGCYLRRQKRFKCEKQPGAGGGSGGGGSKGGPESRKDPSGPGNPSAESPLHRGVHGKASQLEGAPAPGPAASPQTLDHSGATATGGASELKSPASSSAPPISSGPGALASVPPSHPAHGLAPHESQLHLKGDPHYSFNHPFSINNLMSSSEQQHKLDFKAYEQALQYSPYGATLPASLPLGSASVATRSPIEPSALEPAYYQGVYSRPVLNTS
| Sequence | normalised bound fraction [ratio] |
| --- | --- |
| CAAGGCTGCTCACCCACTTCTTTAACCATTCTTCAAAAAAGTGAGCTGTTGTTATTGAACTTTTTATTATTACTTAATTACAAGAAAAAACAAAGTAATCTACCAAAAAAATTATAGTGTTGAGAAAATGCCAAGGCTGTTCACCCACTTCTTTAACCATTCTTCAAATTTACCATATATATATTTTTTTGAC | -0.0035 |
| AAATGCAGCCTTTCCAGACCCATTGGCTCTGATATCTGGAGCGGGGATCCTGCCTTCTGAAAGGCAGAATTATTGGTGATTCCATGTGCTCTTGTTTACTTTGCTTACCAAGACCTATCAAGATTGAGTCATTTATGCTCTCATCTCTGAGAGACTCAGTGCTCTTCATGCAGTTGGACCCAACGCTTCATGC | 0.484 |
| CATTAGAGTCAAAGTTGTTAAGGGGAGCTAGTCATAGCTACCACGTGGCCAGGCATGTGGAACCAGACACCAGGATGAATCATCACACACATCTATTTACTTTAAATAATGCTGACAACCTAGTTCATAGTGACACACTACTTGAGATATATAGAATAACATTATTACCCAGTAAGTATGTGAACATTCCGAT | 0.341 |
| ATCTTCCCCCTCTTCCTTGCCCCACCAGCTCACCTTCCCGGGTTATTTGCAGATAGGAAAATAAATAAAGCCGGCATTCGTTAACCCTCTTCACGCGCATACTGCTGTTTACTTTGGATGAATCATGGTCCTTTGGCGACGCCAGGCTCCGGGAGAGCAAAGCACCGTGTCAGGGCCATGATCCGGGGTGGCC | 0.433 |
| TGTACCTAATTTTTTAAAATCATATTTATAAACTAAAATAGATACTCTAGGATATGTCAAGGAGCTAAGGAAATCATTTAGTTTACTATTTGGATGTTTACACTGAATCTTCAAAGTGTTACATTTTCTTAAAAGAAAATGTTAAAGCATATGTGGCATTTAGTCAAATGTATATGAATATGTATTTATGGCC | 0.194 |

Sample 6
Target: Histone acetyltransferase KAT6A, winged helix 2, GST fusion (KAT6A, Homo sapiens, UniProt Q92794, residues 85-181)
Method: protein binding microarray
Molecule type: double-stranded DNA, one strand shown
Sample: in vitro
Concentration: not given
Setting: 8-mer, flanks averaged, mean of 2 arrays, mostly near background
Relative to: not given
Direction: higher = stronger binding
Construct (chain): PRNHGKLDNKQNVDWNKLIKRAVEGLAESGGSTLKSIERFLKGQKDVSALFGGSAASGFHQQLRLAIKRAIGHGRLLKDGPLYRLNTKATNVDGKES
| Sequence | E-score |
| --- | --- |
| CACGAGTA | -0.119 |
| CCGCACAA | 0.0246 |
| AGACGCTC | -0.125 |
| ACCCCTAT | -0.208 |
| CACTGAGG | 0.0369 |
| GCGACGAA | 0.221 |
| CGGCAGAA | 0.228 |
| CCCCACTA | -0.22 |
| ACGCTGCT | -0.0923 |
| CCCCTTCC | 0.0527 |
| CTATGCAA | -0.113 |
| ACGTGAGC | -0.185 |
| AACACTTG | -0.127 |
| GCGTACCC | 0.152 |
| CTTCTACA | -0.141 |
| GAGAGTGC | -0.177 |
